Measured values from different studies.
Parts stem from different laboratories: compare values within a part only. Changes are numbered by the printed parent chain.

Set 1 — method: competition protein-binding microarray; form: double-stranded DNA, one strand shown; matrix: in vitro; concentration: 2 µM; added: Pho4 competitor, 0.05 µM; direction: higher = stronger binding
Target: Centromere-binding protein 1, full length, His-tagged (CBF1, Saccharomyces cerevisiae, UniProt P17106, residues 1-351)
Sequence of UniProt P17106 (whole entry, looked up): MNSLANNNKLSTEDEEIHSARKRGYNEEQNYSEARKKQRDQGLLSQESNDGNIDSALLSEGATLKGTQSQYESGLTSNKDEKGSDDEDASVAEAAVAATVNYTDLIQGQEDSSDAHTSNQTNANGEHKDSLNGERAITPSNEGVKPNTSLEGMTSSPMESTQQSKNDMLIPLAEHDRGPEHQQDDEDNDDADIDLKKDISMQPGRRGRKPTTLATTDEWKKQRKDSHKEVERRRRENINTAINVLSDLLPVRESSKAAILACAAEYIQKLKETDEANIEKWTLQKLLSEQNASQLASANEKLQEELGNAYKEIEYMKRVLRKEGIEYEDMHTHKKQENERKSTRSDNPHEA
Notes: whole 60-bp probe, lowest competitor level
`CGGATCGCGCTGACGCACGCTGCGTTTACCAAACTTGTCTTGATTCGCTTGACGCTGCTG` gave a fluorescence intensity of 60.8 a.u.
The fluorescence intensity of `TACTGCATAAATGTTTGTTAGTGTCAATGAGCTTGAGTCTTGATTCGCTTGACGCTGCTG` is reported as 71 a.u.
`CCGATCTCTTTCCGACACGTGGAGGAGACATGAAAGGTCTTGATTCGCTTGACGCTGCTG` has a fluorescence intensity of 649 a.u.
With `CCTGCCCTCACCATACAAAACAACCGTTTATAGATAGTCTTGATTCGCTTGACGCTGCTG` the fluorescence intensity was 63.7 a.u.
`AAGAGTGGCTACAAACATGTGAGTTGACCCAAGAATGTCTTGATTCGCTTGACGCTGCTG` has a fluorescence intensity of 114 a.u.
The fluorescence intensity of `ATTACCCGTCTCCGTCACGTGAAGTAAAAATTTCCAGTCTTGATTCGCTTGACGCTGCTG` is reported as 3700 a.u.

Set 2 — method: protein binding microarray; form: double-stranded DNA, one strand shown; matrix: in vitro; concentration: not given; reference: not given; direction: higher = stronger binding
Target: Histone acetyltransferase KAT6A, winged helix 2, GST fusion (KAT6A, Homo sapiens, UniProt Q92794, residues 85-181)
Notes: 8-mer, flanks averaged, mean of 2 arrays, mostly near background
Construct (chain): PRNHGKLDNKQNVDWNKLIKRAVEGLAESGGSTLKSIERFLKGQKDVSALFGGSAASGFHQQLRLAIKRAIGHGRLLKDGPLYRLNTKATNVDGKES
`AGTATTCA` gave an E-score of -0.0454.
For `TCTCTCAA`, the E-score was 0.0579.
For `ACGAGAGA`, the E-score was -0.056.
For `GGGGAGCA`, the E-score was -0.149.
For `CCATTTCG`, the E-score was -0.0891.
For `AGTCCGTG`, the E-score was -0.265.

Set 3 — target: CREBRF, bZIP domain (human); method: DHFR protein complementation; matrix: yeast; reference: wild-type JUN-FOS pair; direction: higher = stronger binding
Notes: single substitutions, most at no-binding floor
Parent: JUN, bZIP domain (human); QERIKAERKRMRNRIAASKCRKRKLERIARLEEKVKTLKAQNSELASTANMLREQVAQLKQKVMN; partner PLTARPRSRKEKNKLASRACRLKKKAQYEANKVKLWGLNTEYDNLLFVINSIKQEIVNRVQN
`S47E` has a binding fitness of -1.34 natural log.
The binding fitness of `Q41W` is reported as -1.49 natural log.
For `A57P`, the binding fitness was -1.52 natural log.
`A29N` gave a binding fitness of -1.55 natural log.

Further values, each from its own experiment
`PhoQ, residues 284 288 289 292 302 303 AGGCYF` has a fold induction of 7.31 (PhoP, residues 12 14 15 18 19 AGCRL (Escherichia coli, UniProt P23836); Sort-seq, item: YFP reporter; E. coli; PhoQ-PhoP variant library, added: 10 µM Mg2+; reference: high Mg2+ state, higher = stronger signaling).

Some of these lines once more (set 2):
For `AGTCCGTG`, the E-score was -0.265.
